Experimental data from different studies.
A part holds a random share of what one study measured. Changes are numbered by the printed parent chain.

Study 1 — target: CCND1, cyclin fold, Cln2 fusion (human); method: yeast growth competition, sequencing; matrix: yeast; setting: weak parent motif; reference: not given; reading: higher = stronger binding
Parent: SAMHD1 docking peptide (human); ASKSRVQLFKDDP
Variant	normalised enrichment score
D12P	0.484
F9Y	-0.0543
K3A	0.937
F9L	0.166
K3D	0.902
S4R	0.0686
D12T	0.381
L8C	-0.222
D12F	-0.00662
K10Q	0.785
Q7Y	0.0807
R5N	0.205
K3F	0.728
L8V	0.226
S4N	0.552
D11M	0.394
R5C	1.73
D11K	0.48
S2P	0.187
D12V	0.717
R5F	0.392
L8R	-0.341
D12Y	0.629
L8T	0.327
V6T	0.484

Study 2 — target: NFE2L2, bZIP domain (human); method: DHFR protein complementation; matrix: yeast; reference: wild-type JUN-FOS pair; reading: higher = stronger binding
Setting: single substitutions, most at no-binding floor
Parent: JUN, bZIP domain (human); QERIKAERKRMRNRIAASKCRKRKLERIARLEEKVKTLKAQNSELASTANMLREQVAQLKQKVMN; partner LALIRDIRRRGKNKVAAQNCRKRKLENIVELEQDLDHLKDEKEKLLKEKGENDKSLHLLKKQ
Variant	binding fitness [natural log]
K36T	-1.51
Q41D	-1.48
A57W	-1.51
T48Y	-1.16
V56W	-1.53
K34Q	-1.51
L45T	-1.47
Q41H	-1.62
R30F	-1.46
L52H	-1.5
N42V	-1.43
E33V	-1.45
Q41L	-1.25
E54P	-1.46
E44N	-1.53
A49M	-1.55
L52D	-1.46

Study 3 — method: protein-binding microarray; molecule type: double-stranded DNA, one strand shown; matrix: in vitro; concentration: 250 nM; setting: 60-bp whole probe; added: salmon DNA 0.4 mg/ml; reference: random background probes; reading: higher = stronger binding; all sequences stand within: GCCTAGCAC … GTCTTGATTCGCTTGACGCTGCTG
Target: Interferon regulatory factor 5, full length, phosphomimetic (IRF5, Homo sapiens, UniProt Q13568-2, residues 1-514, K96S/S451D/S453D/S456D/S462D)
Strand	log fluorescence
TTAGGTTACGGGTATCGGTTAGTGCTA	3.2 z-score
TCATTTCCCTATTATATAACTGTGCTA	1.69 z-score
TTAGGTATCGCCTTTCGGTTAGTGCTA	6.88 z-score
TTTGGTATCGACTATCGGTTAGTGCTA	8.92 z-score
TTTCTTTTATGCTCTTTCTACGTGCTA	5.84 z-score
GACAGTTCCGGTTTCGGGACGTGCTAG	6.33 z-score
TTAGGTTTAGGTTTCGGTTAGTGCTAG	9.07 z-score
TTAGAACTGAGTCACGATTAGTGCTAG	-0.361 z-score
TTAGGACTGTGTCTCGGTTAGTGCTAG	0.0389 z-score
CACTCTCTACATGTGTTTAAGTGCTAG	0.403 z-score
GACGGTATCGGTCGCGGGACGTGCTAG	4.81 z-score
TTAGGATTCGGTCTCGGTTAGTGCTAG	1.4 z-score
TTATGTATCGGGTTTCGGTTAGTGCTA	8.7 z-score
GACGATCTCCGTTTCGAGACGTGCTAG	1.81 z-score
GACGGTATCCTTCTCCTGAAGTGCTAG	-0.0131 z-score
TTACGTATCGACTATCGGTTAGTGCTA	8.55 z-score
TTATGTCTCGGTTTCGGTTAGTGCTAG	9.16 z-score
CTGCCTTCAGAGCTGTCTGTGTGCTAG	-0.492 z-score

Study 4 — method: RNA Bind-n-Seq; molecule type: RNA; matrix: in vitro; concentration: 365 nM; reference: no-protein control; reading: higher = stronger binding
Target: RNA binding protein fox-1 homolog 2, RRM domain, GST-SBP tag (RBFOX2, Homo sapiens, UniProt O43251-10, residues 100-194)
Setting: natural RNA segment, single round, ends assumed
Target sequence (chain): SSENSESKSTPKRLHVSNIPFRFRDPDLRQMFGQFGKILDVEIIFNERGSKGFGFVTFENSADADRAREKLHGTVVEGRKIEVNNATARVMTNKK
Strand	RBNS enrichment (R)
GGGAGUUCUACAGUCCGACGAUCAACAGCUCAGCCCAGUCCUGGGCACAGACACUACACAAGGCAAUGCUGGAAUUGAAACAAUACUUUAAUACCGUUUAAGUUUGUUUCCUUUUUUUUUUUCCUCUUUUUUUUGGAAUUCUCGGGUGCCAA	0.393
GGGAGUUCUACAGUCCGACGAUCCUUGUGUUUUUUAGUAAAAUUGCUUAUUUUUUUCCCAAAGGUGGAAUUUAAUGUUUUGUAGUGAUGAAUAUGAAAAUGCCUGUCAUCUUUAGAUCAUUGAAAGGUUAACUUGGAAUUCUCGGGUGCCAA	0.779
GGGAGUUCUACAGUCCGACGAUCGGUGUCUGGUAACCAUGGGCCUCCACUGACCCAUCCCUCUCUUUUAAACUGUCAGGUCAUUAUCAGGCAUAGGCAGCCUAUAGGGCCCAAAGAAGGCAAAAAGAUAAGAUUGGAAUUCUCGGGUGCCAA	0.298
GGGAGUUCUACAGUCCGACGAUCACUGUUACAUGAAAUAAGCCCCUACCUUCUUACUUUCUGGUUUGUUGAAAAAAUACACUGGUGCUCUUUGAAGUGAUAAAAUGAGUGUUUAUGAAUGGGUGUAAUUAGGAUGGAAUUCUCGGGUGCCAA	0.312
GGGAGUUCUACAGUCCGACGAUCGGUAUAGAAUCAUAUUUGGUGUUUGCCUGUAAGACAACUAGGGGAGCCCUUUAAGGAAAAGAUCAGUGUCCUGCACCCCUGGGGCAAAUGACAAGGGUAUUAUCAUGGAGUGGAAUUCUCGGGUGCCAA	0.299
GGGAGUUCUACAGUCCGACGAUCCUCAUCCUCUUCUGAGACUGUUGAUUUUAAACACUUGAUUGUGAACGAAGAGCUUCUAUGAAAACCCUCACCUUUCCAUGUCCCAAAAACCAACACAAGUCCCUGGGGCGUGGAAUUCUCGGGUGCCAA	0.205
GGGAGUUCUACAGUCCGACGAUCGUACUCUCUGCAUUGUCCAAAUGUCUUACUUUAAGGUGUUUCUUCUGUCUUUUCGACUAAGUAGUAUUGUCAAGAUAAUGGGGCCUGUGACUUGAAUGGAUAGAAUAGAAUGGAAUUCUCGGGUGCCAA	3.51
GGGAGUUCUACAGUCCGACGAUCCCUAACACACAUAACCAUCAGCCAGAAGAUGCCGCAUGCUCCCCUGUGUCUGGAGGAUUUUGUCACCUACAAGCCUUGUCUUUACCUCACCUGCUCCCUGCCCAUAUCUAUGGAAUUCUCGGGUGCCAA	11.9
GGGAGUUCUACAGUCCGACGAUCAUGUAGAGCAUAUCUGUUAUAUGUUUAUGUAACUAUCAAAUGGUUAUUUGUUACUAAAGCUAUAUUUCUGAUAAAAAAUAUUUUAGGAUAAUUGCCUACAGAGGGAUUUAUGGAAUUCUCGGGUGCCAA	0.51
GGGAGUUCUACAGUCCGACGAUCUUACUUAGUAAUCACAGAUUUACCUAAAAUAAAAGGACCCGGGUUGCAGUGAUAUUUAGUUAAUGAUUUGUUUUGGAAAACAUGCAGUUAGGAGUAUUUUUGUAUUUUGUUGGAAUUCUCGGGUGCCAA	0.626
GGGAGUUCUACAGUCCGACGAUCUAACACACUCAAACUGGUGGAGCUUGUUCACCCUAGGAAGGGGAUUGUAUAUAUGGCAGGCUUCCCUGGUGCCGAUGUAAAGGGCUACAUUUGGGAACAUUUGACUUCCUUGGAAUUCUCGGGUGCCAA	0.515
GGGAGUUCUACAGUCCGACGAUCAUACUUCAUUUGGAGAUGUAUGGUGUAAAACACACAAACACACACAAAAAAGCACAAGCCCGCUGCAUGACCCGUCUCUCCUUUCUGGGACUAUUUCUGCUGCGUCCUGCUGGAAUUCUCGGGUGCCAA	9.12

Excerpt of the above (study 1):
Variant	normalised enrichment score
F9L	0.166
K3D	0.902
S4R	0.0686
D12T	0.381
L8C	-0.222
D12F	-0.00662
K10Q	0.785
Q7Y	0.0807
R5N	0.205
K3F	0.728
